Assay results from different studies.
Every numbered part comes from another study and shows a few of its results, in no order.

Sample 1
Target: Histone acetyltransferase KAT6A, winged helix 1, GST fusion (KAT6A, Homo sapiens, UniProt Q92794, residues 1-85)
Technique: protein binding microarray
Form: double-stranded DNA, one strand shown
Medium: in vitro
Concentration: not given
Notes: 8-mer, flanks averaged, mean of 2 arrays, mostly near background
Relative to: not given
Reading: higher = stronger binding
Target sequence (chain): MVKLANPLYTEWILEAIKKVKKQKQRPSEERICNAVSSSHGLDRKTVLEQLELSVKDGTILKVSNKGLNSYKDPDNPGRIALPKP
The E-score of `TCCGAGAA` is reported as -0.0205.
With `GCGAGCAC` the E-score was 0.0864.
`CACCCCTC` has an E-score of -0.13.
For `CAGGCTCG`, the E-score was 0.0677.
`AGTTACAG` has an E-score of -0.216.
The E-score of `GGATCACA` is reported as -0.0917.
`GAACGATA` gave an E-score of -0.0155.
With `ATTGTTGG` the E-score was -0.149.
The E-score of `AATGAGTG` is reported as -0.22.
The E-score of `CGCGCTGA` is reported as 0.38.
`GCGTCTCA` gave an E-score of 0.183.
The E-score of `CGCCTCCC` is reported as 0.0869.
The E-score of `TATGACGA` is reported as -0.0246.
For `TCTCGGAA`, the E-score was -0.0541.
The E-score of `GAGCGGAC` is reported as 0.232.
`GGTGAGCA` gave an E-score of -0.163.
With `CTAGGGCA` the E-score was -0.157.
`CGCCCACC` gave an E-score of -0.0724.
For `ATGGTTCG`, the E-score was 0.0886.

Sample 2
Target: Sal-like protein 4, full length isoform A (SALL4, Homo sapiens, UniProt Q9UJQ4, residues 1-1053)
Sequence of UniProt Q9UJQ4 (whole entry, looked up): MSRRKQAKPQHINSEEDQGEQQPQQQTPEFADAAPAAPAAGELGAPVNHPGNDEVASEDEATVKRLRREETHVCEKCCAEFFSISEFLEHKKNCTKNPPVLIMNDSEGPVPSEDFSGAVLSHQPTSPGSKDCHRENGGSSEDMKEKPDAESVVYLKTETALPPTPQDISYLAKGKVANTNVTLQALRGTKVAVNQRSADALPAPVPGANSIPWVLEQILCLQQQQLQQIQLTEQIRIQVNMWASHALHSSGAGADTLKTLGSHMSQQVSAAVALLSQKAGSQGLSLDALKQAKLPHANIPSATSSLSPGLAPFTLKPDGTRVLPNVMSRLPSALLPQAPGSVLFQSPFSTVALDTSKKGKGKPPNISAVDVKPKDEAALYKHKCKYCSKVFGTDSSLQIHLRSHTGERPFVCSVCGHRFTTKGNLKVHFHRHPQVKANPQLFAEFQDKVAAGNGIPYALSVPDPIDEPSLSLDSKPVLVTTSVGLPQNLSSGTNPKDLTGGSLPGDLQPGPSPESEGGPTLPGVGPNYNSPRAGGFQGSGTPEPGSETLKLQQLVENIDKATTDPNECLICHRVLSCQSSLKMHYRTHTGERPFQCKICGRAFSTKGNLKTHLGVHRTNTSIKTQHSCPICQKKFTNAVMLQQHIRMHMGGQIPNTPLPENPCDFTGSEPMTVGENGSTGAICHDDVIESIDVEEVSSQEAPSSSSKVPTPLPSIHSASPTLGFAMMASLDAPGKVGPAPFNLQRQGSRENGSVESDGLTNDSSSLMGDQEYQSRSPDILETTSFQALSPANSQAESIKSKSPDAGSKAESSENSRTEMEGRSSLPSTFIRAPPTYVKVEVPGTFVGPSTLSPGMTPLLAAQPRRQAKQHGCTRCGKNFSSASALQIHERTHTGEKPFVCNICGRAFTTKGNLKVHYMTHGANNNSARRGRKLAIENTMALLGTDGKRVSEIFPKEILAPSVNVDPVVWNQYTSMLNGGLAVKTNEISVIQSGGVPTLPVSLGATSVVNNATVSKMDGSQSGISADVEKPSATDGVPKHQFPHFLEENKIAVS
Technique: universal PBM
Form: double-stranded DNA, one strand shown
Medium: in vitro
Concentration: 600 nM
Notes: 8-mer, flanks averaged, mean of replicates
Reading: higher = stronger binding
With `AGTGCAAG` the E-score was 0.00171.
`GCAAACGC` gave an E-score of -0.125.
`TCGCGAGA` gave an E-score of -0.0507.
For `CTCGAGCC`, the E-score was -0.201.
For `CAATCGTC`, the E-score was -0.0444.
`ACCTTCCC` gave an E-score of -0.0986.
The E-score of `AGCTTAAC` is reported as 0.0727.
`TGTAGCAA` has an E-score of 0.103.
The E-score of `GATAGATC` is reported as 0.0557.
For `CCGGGTCA`, the E-score was -0.296.
For `AAAGCTGG`, the E-score was -0.113.
`AGTCTCGC` gave an E-score of -0.148.
`CGCAGGGA` gave an E-score of -0.211.
`AGCGACCT` gave an E-score of -0.171.
The E-score of `CAATCCAA` is reported as 0.0894.
`ACCCGGGC` gave an E-score of -0.376.
`ACACAACC` has an E-score of -0.0682.
`TCGTCTAA` gave an E-score of -0.0146.
The E-score of `ACTTCCAT` is reported as 0.102.
With `CGCCTCAA` the E-score was -0.0813.

Sample 3
Target: Ras GTPase-activating protein-binding protein 1, full length (G3BP1, Homo sapiens, UniProt Q13283)
Sequence of UniProt Q13283 (whole entry, looked up): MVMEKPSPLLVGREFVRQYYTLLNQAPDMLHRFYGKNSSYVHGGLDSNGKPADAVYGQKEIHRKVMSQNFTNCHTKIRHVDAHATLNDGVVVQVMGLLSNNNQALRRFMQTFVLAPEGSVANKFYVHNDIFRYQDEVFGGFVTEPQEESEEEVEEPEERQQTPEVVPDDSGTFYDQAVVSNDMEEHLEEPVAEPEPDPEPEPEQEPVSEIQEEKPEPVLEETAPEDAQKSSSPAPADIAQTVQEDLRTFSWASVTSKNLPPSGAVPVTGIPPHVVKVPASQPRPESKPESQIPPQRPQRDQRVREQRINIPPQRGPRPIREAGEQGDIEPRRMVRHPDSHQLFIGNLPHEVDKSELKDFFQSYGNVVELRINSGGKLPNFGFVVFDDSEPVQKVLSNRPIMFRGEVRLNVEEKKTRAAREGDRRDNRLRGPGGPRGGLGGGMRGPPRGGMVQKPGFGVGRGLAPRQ
Technique: RNA Bind-n-Seq
Form: RNA
Medium: in vitro
Concentration: 200 nM
Notes: whole 134-nt RNA, ends assumed
Together with: 150 mM KCl
Relative to: input library
Reading: higher = stronger binding
Shared flanks, not repeated: GGGAGUUCUACAGUCCGACGAUC … UGGAAUUCUCGGGUGUCAAGG
`GCAGGAAGUAAAAACAAAUGGAAAUGCUUCGGAUAGUGGCAGGGGUGGGGGUUGCUAAGUAAAGGGUGGGAUGGGAGUGGGUAAAGAGUU` has a log2 enrichment of 0.84.
`GCAGGAAGUACAAACAAAUGGAAAUGCUUCGGAUAGUGGCAGGGGUGGGGGUUGCUAAGGAAAGGGUGGGAUGGGAGUGGGUAAAGAGUU` has a log2 enrichment of 0.949.
For `UGGCCCUGGUGGCAUGCGGGGAGGAAGAGGCGGCCUCAUGGAUCGUGGUGGUCCCGGUGGAAUGUUCAGAGGUGGCCGUGGUGGAGACAG`, the log2 enrichment was 0.0739.
For `GUCCUGUGCUACACAUCGUAUGUACCGAAUCGGGUUUUUUUGGGUGGGUUUUUUUGGGAAAGUAUUAUGUUACGCCGUUCGGAUCUGCAC`, the log2 enrichment was -0.103.
The log2 enrichment of `CCUCAAGUCCUGUGCUACACAUCGUAUGUACCGAAUCGGAAGGAAGGGGAAGGAAAGUAUUAUGUUACGCCGUUCGGAUCUGCACUUCCA` is reported as -0.368.
`CUCAAGUCCUGUGCUACACAUCGUAUGUACCGAAUCGGUGGAAAAAGGAAAGGAAAGUAUUAUGUUACGCCGUUCGGAUCUGCACUUCCA` has a log2 enrichment of -0.402.
With `UGUCCUGUGCUUUCACAUUCUUUCUGCAUGGAGAAAGUAAUGUAUGCACAAGUGUGGAGAUUGCCCAGCACCAGCCAAUUUAUUUGAUCA` the log2 enrichment was -1.11.
`GCAGGAAGUAACAACAAAUGGAAAUGCUUCGGAUAGUGGCAGGGGUGGGGGUUGCUAAGGAAAGGGUGGGAUGGGAGUGGGUAAAGAGUU` gave a log2 enrichment of 1.07.
With `UCAAGUCCUGUGCUACACAUCGUAUGUACCGAAUCGGGGAAGGGGAAGGGAAGGAAAGUAUUAUGUUACGCCGUUCGGAUCUGCACUUCC` the log2 enrichment was -0.0959.
`GCAGGAAGUAAAAACAAAUGGAAAUGCUUCGGAUAGUGGCAGGGGUGGGGGUUGCUAAGGAAAGGGUGGGAUGGGAGUGGUUAAAGAGUU` gave a log2 enrichment of 0.693.
The log2 enrichment of `CAAGUCCUGUGCUACACAUCGUAUGUACCGAAUCGGAAAAAAAGGUGGAAAAAGGAAAGUAUUAUGUUACGCCGUUCGGAUCUGCACUUC` is reported as -1.15.
The log2 enrichment of `CCUCAAGUCCUGUGCUACACAUCGUAUGUACCGAAUCGGAGGUUUUUGGAGGAAAGUAUUAUGUUACGCCGUUCGGAUCUGCACUUCCAG` is reported as 0.0315.
`GUCCUGUGCUACACAUCGUAUGUACCGAAUCGGGUUUUUGGGUUUUUGGGGUUUUUGGAAAGUAUUAUGUUACGCCGUUCGGAUCUGCAC` has a log2 enrichment of -0.523.
The log2 enrichment of `GUCCUGUGCUACACAUCGUAUGUACCGAAUCGGGGUUUUUGGGGUUUUUGGGGAGGGGAAAGUAUUAUGUUACGCCGUUCGGAUCUGCAC` is reported as 0.403.

Sample 4
Target: RNA binding protein fox-1 homolog 2, RRM domain, GST-SBP tag (RBFOX2, Homo sapiens, UniProt O43251-10, residues 100-194)
Technique: RNA Bind-n-Seq
Form: RNA
Medium: in vitro
Concentration: 365 nM
Notes: natural RNA segment, single round, ends assumed
Relative to: no-protein control
Reading: higher = stronger binding
Shared flanks, not repeated: GGGAGUUCUACAGUCCGACGAUC … UGGAAUUCUCGGGUGCCAA
Target sequence (chain): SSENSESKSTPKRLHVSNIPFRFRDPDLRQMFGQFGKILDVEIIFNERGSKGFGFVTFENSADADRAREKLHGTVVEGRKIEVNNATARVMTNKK
`CCAGAUACCUUGGCCGCCAAACUUCGUUUUCAAACACUGUGUUUUAUUGUGUAGACCUUGAAAACCACGGUUUCAGUGAAGAAGGAUUCUGUAGGGUUCACUCUUCUGCA`: “RBNS enrichment (R)” 1.19.
`GGGCAGAGCCUGUCCCCGCCUUCCCUCACUCUUCCUCAUCCUGCUUCUCUUUUCCUCGCAGAUGAUAAAAGGAAUCUGGCAUUCUACACCUGGACCAUUUGAUUGUUUUA`: “RBNS enrichment (R)” 1.28.
Under “RBNS enrichment (R)”, `GUUCAAAACCAUGUUCCAGCCUCUGGGCCAACUCAGCCACCGGUGGUGAGCUCCACAAAUGAGGGCUCCCCAUCCCCACCAGAGCCGACUGGCAAGGGCAGCCUAGACAC` is recorded as 0.404.
`GAUCUCUUUGGCAAUUGUUCUCUGCCAGAGUCUUAAGUAUGUGUCUUUGAUACUCCUUGAAAAUUAAAACUAAGUACACCCUAUUGCUCUUCAGCUCCCAGAAACUUACG` — result for “RBNS enrichment (R)”: 1.24.
For `CAGGAGCAGACAGAGCAAGAAUUGGCUCCAGGGCUCAAGCCUGCCCUCUGGGCAGCCUGGCGUGGGGACACUUGUUCUGUUCUGUCAUAUCCAAAACAAACUCCAUCCCC`, “RBNS enrichment (R)” read 0.207.
Under “RBNS enrichment (R)”, `CCAGCCUCAGAUCCUGUCUUUAGCAACCAGCUAAUAUUUACCCAGAGGUACUGCAAUAGAGUAUUUCAAAAUGGAAUCAGGAUCUGGUGGGCCUCAGAAAUUGUCUCUUU` is recorded as 0.36.
`UGGAAUUUGCUGUGCAGAGCCAUAAGCCUCCCAUUUUGUUAGCGUCAGCUAGGCCAAUAGGAACAGACCGGGACCUUGUCUCACACUGAUGAUACCUCACAUGUUGACCG` — result for “RBNS enrichment (R)”: 0.285.
`AUCAUAGGAAUAAAAUUAUGGGAUCUCAACAAAGGGUCGAGGGUUUGAGGCUUAAACAAGCCAACAUAUGAAUAUAUGUUUUGUCUCGCUAUACUGCACUUACGCUAUCC`: “RBNS enrichment (R)” 0.272.
For `CACCAAGGUCACAGGAGCAUUGCGUCGCUGAUGGGGUUGAAGUUUGGUUUGGUUCUUGUUUCAGCCCAAUAUGUAGAGAACAUUUGAAACAGUCUGCACCUUUGAUACGG`, “RBNS enrichment (R)” read 0.954.
For `UCGUGUGGGGAGCUUGCUCCCCCAGGGGAGAGGCCCCUUUACCUCAGUGGAUCCUGUUAAGGAGUGCUUCCAGCCUCAGCCUGGGCCCCUCCCACCUGGCAUGGUAAGGG`, “RBNS enrichment (R)” read 5.02.
`AACAUUUUUGGAGGUAGCUUCGUGCAUCAUAAACAACUUUCGUGCUCGUGUCUGACUCGAGCGGUAUCAGAACAGGGCUGGGAUGGAGUCUUCGUGUUUUGCACCCUGUG` — result for “RBNS enrichment (R)”: 1.91.
For `CCUCCCUAACUGGGCCCCGCUGGUCCCAUUUGCUCAUUAGAAUUUCCUCUCACAUCAGUGGGAUACAGAAUUCAGUUUCUCCCUUGCCAGGUCCUUGGGAUGGUUGACCC`, “RBNS enrichment (R)” read 0.416.

Sample 5
Target: Interferon regulatory factor 5, full length, phosphomimetic (IRF5, Homo sapiens, UniProt Q13568-2, residues 1-514, K96S/S451D/S453D/S456D/S462D)
Technique: protein-binding microarray
Form: double-stranded DNA, one strand shown
Medium: in vitro
Concentration: 250 nM
Notes: 60-bp whole probe
Together with: salmon DNA 0.4 mg/ml
Relative to: random background probes
Reading: higher = stronger binding
Shared flanks, not repeated: GCCTAGCAC … GTCTTGATTCGCTTGACGCTGCTG
For `GCAGTTGTCGTTCAAGGCTGGTGCTAG`, the log fluorescence was -0.243 z-score.
For `TCAAATTTTTTTCTAAGACTGTGCTAG`, the log fluorescence was 0.726 z-score.
For `TTAGGTTTCGGCTCCGGTTAGTGCTAG`, the log fluorescence was 7.25 z-score.
`TTAGGACTGCTTAACCTTTAGTGCTAG` gave a log fluorescence of -0.213 z-score.
`ATCTGCAGCTGACTACACACGTGCTAG` has a log fluorescence of -0.406 z-score.
The log fluorescence of `TTAGGTATCGATTTTCGGTTAGTGCTA` is reported as 8.82 z-score.
The log fluorescence of `GACCAACTGGGGTTTCGAGACGTGCTA` is reported as 1.04 z-score.
`TTAGGGTTCGGTCTCGGTTAGTGCTAG` has a log fluorescence of 0.703 z-score.
`TTAGGTTTCCTTTTCCTTCAGTGCTAG` has a log fluorescence of 1.68 z-score.
`ATATATATTATATATACACATGTGCTA` gave a log fluorescence of 0.942 z-score.
`GACGGACTGGACACTGGCGACGTGCTA` has a log fluorescence of -0.77 z-score.
`AGTGTTTGCCCTATTTAAAAGTGCTAG` gave a log fluorescence of 0.101 z-score.
The log fluorescence of `TTAGAACTGAGTTTCGAGTAGTGCTAG` is reported as 5.92 z-score.
With `TCTCCTCTAGGTTCTCTGAGAGTGCTA` the log fluorescence was -0.117 z-score.
With `CACACTTTCCCCTTCCTAGTGTGCTAG` the log fluorescence was 1.98 z-score.
The log fluorescence of `TTAGATATCGGGACCGGATTAGTGCTA` is reported as 1.19 z-score.
The log fluorescence of `GAGGAACTGAGTATCGAGACGTGCTAG` is reported as 1.48 z-score.
For `TTAGGACTGTGTATCGGTTAGTGCTAG`, the log fluorescence was 3.83 z-score.
With `TTAGGTATCGACTATCGGTTCGTGCTA` the log fluorescence was 7.3 z-score.
With `GACAGTTTCCTTTCCCTGACGTGCTAG` the log fluorescence was 2.03 z-score.
`TTAGGACTGCATCTCCTTTAGTGCTAG` has a log fluorescence of -0.305 z-score.
For `ATTCTCTTCTTGCATCTGGGTGTGCTA`, the log fluorescence was 0.772 z-score.
`GACGGGTCCGGTTTCGGGACGTGCTAG` has a log fluorescence of 2.32 z-score.
With `GACGAACTGAGTATCGACACGTGCTAG` the log fluorescence was 2.16 z-score.
With `TGGGCTACCGGGTCCCTCTTGTGCTAG` the log fluorescence was -0.768 z-score.
